Measurements from different studies.
Each line is one published result; not all experiments were run side by side. ± marks the error that the study gave.

target or system	test	test system	conditions	how to read	quantity	value	Structure (SMILES)
–	IAM.PC.DD2 HPLC	–	pH 7.4	–	log k(IAM)	2.29	COc1cc2cn[nH]c2nn1
–	–	octanol/water	–	–	log P	-1.42	O=C([O-])CN1CCN(CC(=O)O)C[C@H](Cc2ccc(NC(=S)NCCCCC(NC(=O)CCCCCCC(=O)NCCCC[C@H](NC(=O)N[C@@H](CCC(=O)O)C(=O)O)C(=O)O)C(=O)O)cc2)N(CC(=O)[O-])Cc2cccc(n2)C1.[64Cu+2] (stereo partly shown)
–	–	–	pH 7.4	–	log D octanol/water	> 3	Oc1ccnc(-c2cc(O)ccn2)c1.[Cl-].[Cl-].[Ru+2].c1ccc(-c2ccnc3c2ccc2c(-c4ccccc4)ccnc23)cc1.c1ccc(-c2ccnc3c2ccc2c(-c4ccccc4)ccnc23)cc1
–	pH-potentiometry, item: Gd(LH-1)M, M = Zn2+	–	25 °C, 0.15 M NaCl	–	log K	10.3	O=C([O-])CN1CCN(CC(=O)[O-])CCN(CC(O)CN(CC(O)CN2CCN(CC(=O)[O-])CCN(CC(=O)[O-])CCN(CC(=O)[O-])CC2)C[C@H](O)[C@@H](O)[C@H](O)[C@H](O)CO)CCN(CC(=O)[O-])CC1.[Gd+3] (stereo partly shown)
–	PAMPA	–	500 µM, pH 7.4	–	log Papp	2.09 ×10⁻⁶ cm/s	CCCCC[C@@H]1OC(=O)[C@@H](C)N(C)C(=O)[C@H](CCCCC)OC(=O)[C@@H](C)NC(=O)[C@H](CCCCC)OC(=O)[C@@H](C)N(C)C(=O)[C@H](CCCCC)OC(=O)[C@@H](C)NC1=O
–	–	octanol/PBS	64Cu complex, no HPLC purification	–	log D	1.12	CC(C)(C)N1Cc2cccc(n2)CN(C(C)(C)C)Cc2cc(-c3nc4ccccc4s3)cc(n2)C1.[64Cu+2]
–	protonation constant, potentiometry	–	298 K, ionic strength 0.15 M NaCl	–	log K1	7.7	Clc1cc2nc(c1)CNCc1cc(Cl)cc(n1)CNC2
–	IAM chromatography	–	pH 7.0, 30 °C, extrapolated to 0% acetonitrile	–	log kW IAM	-0.73	NCCN(CC(=O)O)C(=O)Cn1cnc2c(=O)[nH]c(N)nc21
–	HPLC	octanol/water	100 µM	–	log P	-1.28	CN[P+](c1ccccc1)(c1ccccc1)c1ccccc1
–	PAMPA, HPLC-UV	–	500 µM, pH 7.4	–	log Papp	-5.22 ± 0.05	CCCCC[C@@H]1OC(=O)[C@@H](C)N(C)C(=O)[C@H](CCCCC)OC(=O)[C@@H](C)N(C)C(=O)[C@H](CCCCC)N(C)C(=O)[C@@H](C)N(C)C(=O)[C@H](CCCCC)OC(=O)[C@@H](C)N(C)C1=O
–	shake-flask	1-octanol/phosphate buffer	pH 8.0	–	log D	-2.23 ± 0.06	O=C(O)C(Cc1c[nH]cn1)N1C(=O)c2ccc3c4ccc5c6c(ccc(c7ccc(c2c37)C1=O)c64)C(=O)N(C(Cc1c[nH]cn1)C(=O)O)C5=O (stereo not shown)
–	IAM chromatography	–	pH 7.0, 30 °C, extrapolated to 0% acetonitrile	–	log kW IAM	-0.73	Cc1cn(CC(=O)N(CCN)CC(=O)O)c(=O)[nH]c1=O
–	–	octanol/PBS	pH 7.4, 177Lu-labelled	–	log P	-0.96 ± 0.16	N#C[C@@H]1CC(F)(F)CN1C(=O)CNC(=O)c1ccnc2c(NC(=O)[C@H](CCCCNC(=O)CCOCCOCCOCCOCCOCCOCCNC(=O)CN3CCN(CC(=O)[O-])CCN(CC(=O)[O-])CCN(CC(=O)[O-])CC3)NC(=O)CCCc3ccc(I)cc3)cccc12.[177Lu+3]
–	potentiometric titration	–	first phosphonate deprotonation	–	log Ka	-0.3	O=C(O)CN1CCN(CC(=O)O)CCN(Cc2cccc(P(=O)(O)O)n2)CC1
–	item: Fe(III)	–	1 weeks, pH 7.4, added: EDTA competitor	–	log conditional stability constant	21.1	CN(CCNCc1ccncc1[O-])CCNCc1ccncc1[O-].[Cl-].[Fe+3]
–	potentiometry	aqueous 1.0 M KCl	25 °C, L + H+ to HL	–	log overall protonation constant	11.5	c1ccc(CN2CCCNCCNCCCNCC2)nc1
–	PAMPA, HPLC-UV	–	500 µM, pH 7.4	–	log Papp	-5.27 ± 0.04	CCCCC[C@@H]1OC(=O)[C@@H](C)N(C)C(=O)[C@H](CCCCC)OC(=O)[C@@H](C)N(C)C(=O)[C@H](CCCCC)OC(=O)[C@@H](C)N(C)C(=O)[C@H](CCCCC)OC(=O)[C@@H](C)NC1=O
–	protonation constant, potentiometry	–	298 K, ionic strength 0.15 M NaCl	–	log K1	7.5	FC(F)(F)c1cc2nc(c1)CNCc1cc(C(F)(F)F)cc(n1)CNC2
–	PAMPA, HPLC-UV	–	500 µM, pH 7.4	–	log Papp	-5.48 ± 0.03	CCCCC[C@@H]1OC(=O)[C@@H](C)N(C)C(=O)[C@H](CCCCC)N(C)C(=O)[C@@H](C)N(C)C(=O)[C@H](CCCCC)OC(=O)[C@@H](C)N(C)C(=O)[C@H](CCCCC)N(C)C(=O)[C@@H](C)N(C)C1=O
–	–	octanol/PBS	pH 7.4, 177Lu-labelled	–	log P	-2.24 ± 0.12	N#C[C@@H]1CC(F)(F)CN1C(=O)CNC(=O)c1ccnc2c(NC(=O)[C@@H](N)CCCCNC(=O)CCOCCOCCOCCOCCOCCOCCNC(=O)CN3CCN(CC(=O)[O-])CCN(CC(=O)[O-])CCN(CC(=O)[O-])CC3)cccc12.[177Lu+3]
–	shake-flask	1-octanol/phosphate buffer	pH 6.0	–	log D	-2.23 ± 0.24	O=C1c2ccc3c4ccc5c6c(ccc(c7ccc(c2c37)C(=O)N1CCN1CCCCC1)c64)C(=O)N(CCN1CCCCC1)C5=O
–	pH-potentiometry	0.15 M NaCl	25 °C	–	log K Ca2(HL)	5.25	O=C(O)CN1CCN(CC(=O)O)CCN(CC(O)CN(CC(O)CN2CCN(CC(=O)O)CCN(CC(=O)O)CCN(CC(=O)O)CC2)C[C@H](O)[C@@H](O)[C@H](O)[C@H](O)CO)CCN(CC(=O)O)CC1 (stereo partly shown)
–	PAMPA, HPLC-UV	–	500 µM, pH 7.4	–	log Papp	-5.46 ± 0.07	CCCCC[C@@H]1OC(=O)[C@@H](C)NC(=O)[C@H](CCCCC)OC(=O)[C@@H](C)NC(=O)[C@H](CCCCC)OC(=O)[C@@H](C)NC(=O)[C@H](CCCCC)OC(=O)[C@@H](C)NC1=O
Trypanosoma cruzi	reporter mRNA translation, inhibitor, item: capped polyadenylated Renilla luciferase mRNA	cell-free extract	concentration not given	baseline: control RNA	relative translation	95.4%	O=C(CCC(=O)Nc1ccc(Cl)cc1Cl)N/N=C/c1ccc([N+](=O)[O-])o1
–	PAMPA, HPLC-UV	–	500 µM, pH 7.4	–	log Papp	-5.95 ± 0.09	CCCCC[C@@H]1OC(=O)[C@@H](C)N(C)C(=O)[C@H](CCCCC)OC(=O)[C@@H](C)NC(=O)[C@H](CCCCC)OC(=O)[C@@H](C)NC(=O)[C@H](CCCCC)OC(=O)[C@@H](C)NC1=O
–	IAM chromatography	–	pH 7.0, 30 °C, extrapolated to 0% acetonitrile	–	log kW IAM	0.62	NCCN(CC(=O)O)C(=O)Cn1cnc2c(NC(=O)OCc3ccccc3)ncnc21
–	PAMPA	–	500 µM, pH 7.4	–	log Papp	4.07 ×10⁻⁶ cm/s	CCCCC[C@@H]1OC(=O)[C@@H](C)N(C)C(=O)[C@H](CCCCC)OC(=O)[C@@H](C)N(C)C(=O)[C@H](CCCCC)OC(=O)[C@@H](C)NC(=O)[C@H](CCCCC)OC(=O)[C@@H](C)NC1=O
–	IAM.PC.DD2 HPLC	–	pH 7.4	–	log k(IAM)	1.25	c1ccc(-c2cc3cn[nH]c3nn2)cc1

Some of these lines once more:
target or system	test	test system	conditions	how to read	quantity	value	Structure (SMILES)
–	PAMPA, HPLC-UV	–	500 µM, pH 7.4	–	log Papp	-5.48 ± 0.03	CCCCC[C@@H]1OC(=O)[C@@H](C)N(C)C(=O)[C@H](CCCCC)N(C)C(=O)[C@@H](C)N(C)C(=O)[C@H](CCCCC)OC(=O)[C@@H](C)N(C)C(=O)[C@H](CCCCC)N(C)C(=O)[C@@H](C)N(C)C1=O
–	–	octanol/PBS	pH 7.4, 177Lu-labelled	–	log P	-2.24 ± 0.12	N#C[C@@H]1CC(F)(F)CN1C(=O)CNC(=O)c1ccnc2c(NC(=O)[C@@H](N)CCCCNC(=O)CCOCCOCCOCCOCCOCCOCCNC(=O)CN3CCN(CC(=O)[O-])CCN(CC(=O)[O-])CCN(CC(=O)[O-])CC3)cccc12.[177Lu+3]
–	shake-flask	1-octanol/phosphate buffer	pH 6.0	–	log D	-2.23 ± 0.24	O=C1c2ccc3c4ccc5c6c(ccc(c7ccc(c2c37)C(=O)N1CCN1CCCCC1)c64)C(=O)N(CCN1CCCCC1)C5=O
–	pH-potentiometry	0.15 M NaCl	25 °C	–	log K Ca2(HL)	5.25	O=C(O)CN1CCN(CC(=O)O)CCN(CC(O)CN(CC(O)CN2CCN(CC(=O)O)CCN(CC(=O)O)CCN(CC(=O)O)CC2)C[C@H](O)[C@@H](O)[C@H](O)[C@H](O)CO)CCN(CC(=O)O)CC1 (stereo partly shown)
